Experimental data of several laboratories.
Compare with care: the assays were run in different laboratories. Numbers after ± are the reported error.

SMILES	tested on	assay	test system	setting	how to read	measurement	result
CCc1nnc(NC(=O)c2cccc(C(=O)Nc3nnc(CC)s3)n2)s1	Mus musculus	gene silencing, high-content imaging	LDR reporter GFP cells	30 h, retest run 1	–	Emax	41%
O=C(N/N=C/c1cc[n+](CC2CC2)c2ccccc12)c1cccc(C(=O)N/N=C/c2cc[n+](CC3CC3)c3ccccc23)n1	hp2 hairpin duplex DNA	FRET melting	–	1 µM	–	ΔTm	4 ± 1.4 °C
Nc1ncc(-c2cc(-c3cnn(CC(F)(F)F)c3)ncc2F)nc1C(=O)NC1CNCC(F)C1 (stereo not drawn)	CSNK1A1	KINOMEscan	–	1 µM	baseline: DMSO control	remaining binding	100%
COC1CN([C@H]2CC[C@H]([C@@]3(C)Oc4c(Cl)cc(C(=O)NCc5c(SC)cc(C)[nH]c5=O)c(C)c4O3)CC2)C1	–	RNA-seq, refers to: DAPK1	human, whole blood	dose not given, 24 h	baseline: pretreatment baseline	log2 fold change	1.5
CN1CCCNC(=O)c2cccc(c2)C(=O)NCCCN(C)CCCNc2cccc3c2C(=O)c2cccc(c2C3=O)NCCC1	SAS	RNA-Seq, refers to: CCDC14 mRNA	–	1 µM, 6 h	baseline: untreated cells	log2 fold change	-0.706
CC[n+]1cccc2cc(/C=N/NC(=O)c3cccc(C(=O)N/N=C/c4ccc5c(ccc[n+]5CC)c4)n3)ccc21	hp2 hairpin duplex DNA	FRET melting	–	1 µM	–	ΔTm	2.5 ± 1 °C
C(=N\Nc1nc(-c2ccccn2)nc2ccccc12)/c1ccccc1	Mus musculus	gene silencing, high-content imaging	LDR reporter GFP cells	retest, mean of two runs	–	EC50	5.01 µM
CNS(=O)(=O)Nc1nccc(Cc2c(C)c3ccc(Oc4ncccc4F)cc3oc2=O)c1F	HuO9	cell viability, CellTiter-Glo	–	7 days	–	IC50	> 1 µM
C[n+]1ccc(/C=N/NC(=O)N/N=C/c2cc[n+](C)c3ccccc23)c2ccccc21	hp2 hairpin duplex DNA	FRET melting	–	1 µM, together with: ds26 10 µM	–	ΔTm	0.5 ± 0.1 °C
COC1OC(C)C(OC2OC(C)C(O)C(OC3OC(C)C(OC4OC(C)C(O)C(OC5OC(C)C(OC6OC(C)C(O)C(OC7OC(C)C(OC8OC(C)C(O)C(OC9OC(C)C(O)C(OS(=O)(=O)O)C9OS(=O)(=O)O)C8OS(=O)(=O)O)C(OS(=O)(=O)O)C7OS(=O)(=O)O)C6OS(=O)(=O)O)C(OS(=O)(=O)O)C5OS(=O)(=O)O)C4OS(=O)(=O)O)C(OS(=O)(=O)O)C3OS(=O)(=O)O)C2OS(=O)(=O)O)C(OS(=O)(=O)O)C1OS(=O)(=O)O (stereo not drawn)	–	–	human plasma	128 µg/mL	–	prothrombin time	15.2 ± 0.3 s
O=C(N/N=C/c1ccc(C[n+]2ccccc2)cc1)c1cccc(C(=O)N/N=C/c2ccc(C[n+]3ccccc3)cc2)c1	MYC parallel G4 DNA	FRET melting	–	1 µM, DNA 0.2 µM, together with: duplex DNA competitor 10 µM	–	ΔTm	2.3 ± 0.3 °C
Cc1ncsc1-c1ccc(C(C)NC(=O)C2CC(O)CN2C(=O)C(NC(=O)CCCCCCCCCCN2CCCC(Nc3ncc(Cl)c(Nc4ccccc4S(=O)(=O)C(C)C)n3)C2)C(C)(C)C)cc1 (stereo not drawn)	22Rv1	RNA-seq, refers to: PLEKHA6 mRNA	–	concentration not given	baseline: DMSO	log2 fold change	-2.81
O=C(N/N=C/c1ccc2c(ccc[n+]2Cc2ccccc2)c1)C(=O)N/N=C/c1ccc2c(ccc[n+]2Cc2ccccc2)c1	MYC parallel G4 DNA	FRET melting	–	1 µM, DNA 0.2 µM, together with: duplex DNA competitor 10 µM	–	ΔTm	3.8 ± 0.5 °C
C=CC(=O)N1[C@H](c2ccc3c(c2)OCO3)c2[nH]c3ccccc3c2C[C@@H]1C(=O)N1CCN(C)CC1	human cyclin E1 N112C-3xFLAG:CDK2	co-IP with TMT proteomics, refers to: SNRNP200	–	concentration not given, O75643	baseline: wild type DMSO	relative co-enrichment	135%
C=CC(=O)Nc1cccc(Cn2ncc3cnc(Nc4cnn(CCOC)c4)nc32)c1	NEK3 human	binding, KINOMEscan	–	100 nM	lower = stronger binding	percent of control	67%
